Assay results from different studies.
Numbered parts are unrelated; each lists some results of a single study.

Block 1
Target: RNA binding protein fox-1 homolog 2, RRM domain, GST-SBP tag (RBFOX2, Homo sapiens, UniProt O43251-10, residues 100-194)
Technique: RNA Bind-n-Seq
Form: RNA
Sample: in vitro
Tested at: 365 nM
Setting: natural RNA segment, single round, ends assumed
Baseline: no-protein control
Direction: higher = stronger binding
Shared flanks, not repeated: GGGAGUUCUACAGUCCGACGAUC … UGGAAUUCUCGGGUGCCAA
Target sequence (chain): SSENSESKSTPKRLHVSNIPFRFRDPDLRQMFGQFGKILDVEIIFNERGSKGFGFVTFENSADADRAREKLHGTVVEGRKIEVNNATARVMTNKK
| Strand | RBNS enrichment (R) |
| --- | --- |
| AAGAGAUUUUAUGUUUAAAAUGGCAUUUAGCACAGUAUUUAACAUUCUUGGUCACAAAGCUAUUUAAGUGGACUGUAUUUCGGCUAUGUCUCAUGUUUUAUAUGAUUAAA | 0.718 |
| CAGUCUUAAUUUUUAAAUAUCUGAUCAUUUUAUAUUGUCCGAUCAUUUCAGCACCUCCAAAGGGUCCUAGGAUAUUCUGCCUCUCUCUUCACCCUGUCCCCAGACGGGGG | 0.518 |
| UCUGCUGGAUUUGGGAGUUCCGCAUCUUUUGUGGAGGGCAGAGUAUGGACAUCUUACACCCGGUGGUCAAGUGUGUAAUAAACUUGAGCAUUCGAAUGGGAGAAAAAGCA | 11.2 |
| CCCAUGAGUGCAACGACCAAGGUGAAGGACAGCCAGACAGGAAAGGUGACAAAAGCCACCCUGAGUGAUACUAGGCUGCCUGAACCUUUGGGUGGGAGUGGAAGUCCCUA | 0.352 |
| CCAAUGAUGACCUGACCAUGCCUGCCUGCUGAUCAGUUAACUGGUAAUCGCCUUUGCUUGCCUGUCGUCAGUGCAGCGAGCUGAGGCACUUGUCCGUUCGUCUUACCAUC | 0.417 |
| AAAAUGUGUUUGAGCUUUAGACUAUAACAUUUGUUGUAAUAAUUGCUAGGUUGAAGUUCACCAUGUUUAAAAAAAAUGGGGGGCAUGGAUUUACAUUACAAAGGCGUCCA | 0.593 |
| UGUCUGAGUCCCUUGAUCAUUGUCCUUUACCUCACAGUCUCUAGGAUUCCUGACUCAGGCUGACCUCUCUCUCUGGUCCCAGACUGCCUCCUUGCCCAGGCCUCUCUCAC | 0.333 |
| ACCUCUGGGGGUAGAGGGAAGACCUAAUUCACAGGUCCUGGGAAAUUUGCUCAAUAAAAGUGGCCUUCCCUUGCCCUCCACACUAGGUCAUGUACAGUCUACCGCACCCU | 0.326 |
| AGAGCUCCCCUGUUUUCUGUUUAAUUGAUGAGCCUGGGAAAGGAGUGUGUUCUGCCUGCCCGUUACAGUGGAGCGUUCCGUGUCCAUAAAACGUUUUCUAACUGGGUGUU | 1.84 |
| UCUUUUUUUAAUAAUUUCAUCCCUAUUUAUAGUUUUUAUAUUAAUUUGUUUUUCUUAUCCAAGUAAAGAUGUCAAUAGGAAUUGCAUUAGUCCAAGGCCUUUUUCAUAAA | 1.23 |
| UUUUUAUAUGAUUUUCUUGACUGCACGUUGGCCAGAAGGACUGCUGGCCUGGCCUCCUUUCCGUCCGGGCAGCUGUGCUGCAGAGACAAAAAGUGGUGCUGAGGGACUCC | 0.291 |
| CUGAAGACCAGCAGACACCAGACUUUAAAAGUGCUUAAAUUGGAAUUUGGAAACUACAGUAAAGAAACCUUCAGAUACCAGUUCCAUCCUGAAGCCCUCUGUUGAACAAC | 0.407 |

Block 2
Target: Histone acetyltransferase KAT6A, both winged helices, GST fusion (KAT6A, Homo sapiens, UniProt Q92794, residues 1-181)
Technique: protein binding microarray
Form: double-stranded DNA, one strand shown
Sample: in vitro
Tested at: not given
Setting: 8-mer, flanks averaged, mean of 2 arrays, mostly near background
Baseline: not given
Direction: higher = stronger binding
Target sequence (chain): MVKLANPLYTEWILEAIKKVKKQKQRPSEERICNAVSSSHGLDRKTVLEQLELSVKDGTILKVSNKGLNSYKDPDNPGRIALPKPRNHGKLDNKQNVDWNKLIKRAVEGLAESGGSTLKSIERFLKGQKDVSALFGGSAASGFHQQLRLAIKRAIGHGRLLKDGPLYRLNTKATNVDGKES
| Strand | E-score |
| --- | --- |
| AGGAACCG | 0.0772 |
| CGCCCCGA | 0.178 |
| GAGGTTCA | 0.0207 |
| CTCATCCC | -0.109 |
| GTCAGGAC | -0.128 |
| AAGCACAC | -0.114 |
| AACGCTGT | 0.132 |
| TTCGGAAA | 0.104 |
| CGCTTCAC | 0.214 |
| GATAAGCA | -0.0605 |
| AAGGTGGA | -0.168 |
| AGGTTTCC | -0.0129 |
| ACAAATGA | -0.184 |
| ATTACTCC | -0.143 |
| ATTGGGCC | -0.00371 |
| AACAGGCT | -0.0965 |
| ATCTAACC | -0.017 |
| GCGTGCCC | 0.0734 |
| GAACTTGA | -0.13 |
| AGAATTCA | -0.093 |
| GTTCGGTA | 0.0827 |

Block 3
Target: RING finger protein unkempt homolog, zinc fingers 1-6, GST-SBP tag (UNK, Homo sapiens, UniProt Q9C0B0, residues 30-357)
Chain of UniProt Q9C0B0 (30-357, looked up): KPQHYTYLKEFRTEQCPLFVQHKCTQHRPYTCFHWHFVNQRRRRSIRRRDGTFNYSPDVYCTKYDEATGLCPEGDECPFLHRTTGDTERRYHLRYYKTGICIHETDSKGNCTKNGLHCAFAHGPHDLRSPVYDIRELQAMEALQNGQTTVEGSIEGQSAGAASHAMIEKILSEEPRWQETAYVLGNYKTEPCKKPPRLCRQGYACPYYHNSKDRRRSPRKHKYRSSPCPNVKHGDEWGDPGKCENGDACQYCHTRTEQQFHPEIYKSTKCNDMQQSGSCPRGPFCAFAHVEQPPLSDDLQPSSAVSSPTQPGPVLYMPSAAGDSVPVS
Technique: RNA Bind-n-Seq
Form: RNA
Sample: in vitro
Tested at: not given
Setting: RNA with constant flanks, human and mouse sites, ends assumed
Baseline: input RNA pool
Direction: higher = stronger binding
Shared flanks, not repeated: GGGAGUUCUACAGUCCGACGAUC … CAACAGAGGAUUGAGCAUCA
| Strand | bound/input enrichment [ratio] |
| --- | --- |
| AAGCUAUCAUUGAAGAAGAUGAUGGUGAUGGGGGAUGGGUAGAUACAUAUCACAACACAGGUAUUACAGGAAUUACUGAAGCAGUUAAGGAGAUUACACUGGAAAGCAAGGACAGUAUAA | 0.114 |
| GCUCUACGCUGCUGGGAUACAGCUCGCAGCCUGGGGUCCCGGAUAUUUGGAAGAUAUGCGUUCACGGUUAGAGCAUUAAGUUCUUUGCCAGAUAAGAAAAAGGAAUUUUUGCAUAAUGGA | 0.293 |
| CUAAGUUCUUAACACAUAGUUUUGGACCUCAAAAUAACAUUUUAGAGUUAUUCUAGGCUCAAUAGUUUUUGCUUUAGAUAAUUAUUACAUUUUCCUAAAUUUGUAAUUGCUUUAUUCUGU | 33.1 |
| UGUAAAUUACCUUUACUGUGUGUACAUUUUUACUGUAUUUGAGACAUUUUUUUGUGUGUGACUAGUUAAUUUUGCAGGAUGUGCCAUAUCAAUUGAACGGAACUAAAGUCUGUGACAGUG | 0.514 |
| UGGUGUUGGCGGUCUGGCUCAGCUGGGCAGGGGGUAACUUUACUGAUUUGGGGGUGGUUUUUAGUUUAAUUUUUCUUUUCUAGCUUCCCAUCGACGGUCAGUGCGCACGUUGUAAUCAGC | 3.19 |
| AAUCAGAAUACCAGUGAUUUUGAGAAAACGGGAUUUUCUGAAGAAGUACUAGAUGAUGUAAUUAUAUUGAUUAAAUCGGAUAGCGUCCAUCUGUACUGUAAUCCUGUAAACUUUCGCUAU | 0.152 |
| GGGUCCUGCAGGAAGCAGUGUUCUCCUUGGUGCCCGGGGAAACCUCCCAUGUCUGUUUCCUAUAGGCCACUUGUUCCUCACGACCAUCCGGCCUGACAAUCAGAAUUCCUAUCUCAUUGC | 0.196 |
| GUUAUAGUCAUCCCACAGUCUUCUAUUUCCACCAAUGCAGUAGUGGUAGAUCUUGGGUUAAUCAGAGUUCAUAAUCAGUUCAGUCUGGUGUCUGAUGAAGACUACUUAAAUCCUCCAGUA | 0.222 |
| CACUCUCACCCUGAAGGAACGGGAGCGGCUGAAGAAAAGGAUUCUGGAUGAAAUUGAAGAACAUAACAUCAAAAUCUAUCACUUACCUGAUGCAGAAUCAGAUGAAGAUGAAGAUUUUAA | 0.138 |
| AAUUGAAAUGGCUCCUGUAUCACAUACGGAGGUCUUGUGUAUCUGUGGCAACAGGGAGUUUCCUUAUUCACUCUUUAUUUGCUGCUGUUUAAGUUGCCAACCUCCCCUCCCAAUAAAAAU | 0.285 |
| GACAAAGCAGAAUUCUUCAGUUCUGAAAAUGUUAAAGUGUUUGAGUCAAUUAAUAUGGACACAAAUGACAUGUGGUUGAUGAUGAGGAAAGCUUACAAAUAUGCUUAUGAUCAAUACAGG | 0.104 |

Block 4
Target: Interferon regulatory factor 5, full length, phosphomimetic (IRF5, Homo sapiens, UniProt Q13568-2, residues 1-514, S451D/S453D/S456D/S462D)
Technique: protein-binding microarray
Form: double-stranded DNA, one strand shown
Sample: in vitro
Tested at: 940 nM top
Setting: 60-bp whole probe
With: salmon DNA 0.4 mg/ml
Baseline: random background probes
Direction: higher = stronger binding
Shared flanks, not repeated: GCCTAGCAC … GTCTTGATTCGCTTGACGCTGCTG
| Strand | fitted relative affinity |
| --- | --- |
| GACAGACTGGGACTGGGGACGTGCTAG | -0.495 z-score |
| GACGATTTCAGCCTGGAGACGTGCTAG | 0.184 z-score |
| GTCGGTTTCGGGTTTCGGGACGTGCTA | 11.1 z-score |
| GACGATCTCAGTCTCGAGCCGTGCTAG | 0.679 z-score |
| TTAGGACTGGGGTTTCGGTAAGTGCTA | 4.18 z-score |
| TTTACTCTCTACATGGGTATGTGCTAG | 1.62 z-score |
| TACGGTCTCCTACTGCTGACGTGCTAG | 0.0161 z-score |
| AGACATTCTTTCAGTTGGAAGTGCTAG | 0.577 z-score |
| GACGGACTGCTACTGCTAACGTGCTAG | -0.695 z-score |
| CACGGACTGGGGACTGGGGACGTGCTA | -0.469 z-score |
| GACGATTTCGGGTATCCAGACGTGCTA | 0.6 z-score |
| TTAGGTCTCCTTATCATTTAGTGCTAG | 0.704 z-score |
| TTAGGACTGAACTATCGGTTAGTGCTA | -0.226 z-score |
| CCTTGTGTTACTTTCTACTTGTGCTAG | 1.26 z-score |
| AACGGTATCGGTCTCGGGACGTGCTAG | 8.42 z-score |
| GACGGACTAGGTATCGGGACGTGCTAG | 0.897 z-score |
| TACGGTATCGGGTTTCGGGACGTGCTA | 5.24 z-score |
| TTAGGACTGGACTCTCGGTTAGTGCTA | 1.34 z-score |
| TCACCTATAGGGCCTGACACTGTGCTA | -0.107 z-score |
| TCAGTTTTCCTTCATGTACTGTGCTAG | 1.43 z-score |
| TTGTCTCCCCCATCTTGTTCCGTGCTA | 1.06 z-score |
